# Published values pooled from the literature.
# Parts stem from different laboratories: compare values within a part only.

# Set 1
# Target: Histone acetyltransferase KAT6A, winged helix 1, GST fusion (KAT6A, Homo sapiens, UniProt Q92794, residues 1-85)
# Method: protein binding microarray
# Form: double-stranded DNA, one strand shown
# Medium: in vitro
# Tested at: not given
# Setting: 8-mer, flanks averaged, mean of 2 arrays, mostly near background
# Reference: not given
# Reading: higher = stronger binding
# Construct (chain): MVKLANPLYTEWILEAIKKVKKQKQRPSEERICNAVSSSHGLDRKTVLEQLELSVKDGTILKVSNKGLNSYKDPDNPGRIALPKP
Strand,E-score
CAATGGAG,-0.101
AAATGCAG,-0.227
AGTGCGCG,0.397
TACCCTAA,-0.182
CCTGCGGC,0.263
CTATCTGC,0.0182
GATGATCA,-0.106
CACTCCTA,-0.0166

# Set 2
# Target: POU domain, class 6, transcription factor 1, POU and homeodomain (POU6F1, Homo sapiens, UniProt Q14863, residues 311-611)
# Method: protein-binding microarray
# Form: hairpin DNA
# Medium: in vitro
# Tested at: not given
# Setting: whole hairpin DNA, median over replicate spots
# Reference: not given
# Reading: higher = stronger binding
# Residues (chain): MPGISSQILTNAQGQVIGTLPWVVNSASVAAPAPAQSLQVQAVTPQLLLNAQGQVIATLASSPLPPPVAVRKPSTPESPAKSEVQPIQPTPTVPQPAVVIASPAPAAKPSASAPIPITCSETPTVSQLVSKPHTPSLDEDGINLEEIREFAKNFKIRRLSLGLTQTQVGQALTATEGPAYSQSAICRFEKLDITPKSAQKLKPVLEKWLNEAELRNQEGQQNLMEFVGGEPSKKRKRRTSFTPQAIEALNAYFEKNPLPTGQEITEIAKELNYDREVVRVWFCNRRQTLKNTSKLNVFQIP
Strand,median fluorescence [a.u.]
GAGGCCATAATGAGGGGCCTCCTGGCCCCTCATTATGGCCTCACACTCTT (5mC at 27),1830
GAGGCCACAATTAGGTGCCTCCTGGCACCTAATTGTGGCCTCACACTCTT,489
GAGGCCATCATTAGGTGCCTCCTGGCACCTAATGATGGCCTCACACTCTT (5mC at 9),511
GAGGCCATAACTAGGTGCCTCCTGGCACCTAGTTATGGCCTCACACTCTT,420

# Set 3
# Target: Replicase polyprotein 1ab, polymerase (rep, Severe acute respiratory syndrome coronavirus 2, UniProt P0DTD1)
# Observed: enzyme activity
# Mode: inhibitor
# Tested at: 20 µM
SMILES,inhibition
CN1CCN(c2ccc3nc(-c4c(N)c5c(F)cccc5[nH]c4=O)[nH]c3c2)CC1,-7.04%
NC(=O)c1cnccn1,1.51%
COc1ccc(C[C@@H](C)NC[C@H](O)c2ccc(O)c(NC=O)c2)cc1 (racemic),-0.28%
CC1=C(/C=C/C(C)=C/C=C/C(C)=C/C(=O)O)C(C)(C)CCC1,-14.5%
NC(N)=Nc1ccc(Cl)cc1,12.7%
Nc1ncnc2c1c(-c1cccc(OCc3ccccc3)c1)cn2[C@H]1C[C@@H](CN2CCC2)C1,1.62%
C[C@@H](C(=O)O)c1ccc(-c2ccccc2)c(F)c1,1.54%
CCOC(=O)Nc1ccc2c(c1)N(C(=O)CCN(CC)CC)c1ccccc1S2,-0.42%
Cc1[nH]c2ccccc2c1CCNC(=O)c1cccs1,1.66%
CCCC(=O)C1(c2ccccc2)CCN(C(=O)[C@@H](Cc2ccc(OC)cc2)NC(=O)[C@@H](N)Cc2cncn2C)CC1,0.97%
COc1ccc2c(c1)c(CC(=O)OCC(C(=O)O)c1ccccc1)c(C)n2C(=O)c1ccc(Cl)cc1 (centres unmarked),-3.4%
CO[C@H]1C[C@@H]2CC[C@@H](C)[C@@](O)(O2)C(=O)C(=O)N2CCCC[C@H]2C(=O)O[C@H]([C@H](C)C[C@@H]2CC[C@H](n3cnnn3)[C@H](OC)C2)CC(=O)[C@H](C)/C=C(\C)[C@@H](O)[C@@H](OC)C(=O)[C@H](C)C[C@H](C)/C=C/C=C/C=C/1C,33.3%
O=C1NCCN1c1ncc([N+](=O)[O-])s1,-6.24%
CC(=O)NC[C@H]1CN(c2ccc(N3CCSCC3)c(F)c2)C(=O)O1,-0.92%
C[C@H](CCC(=O)O)[C@H]1CC[C@H]2[C@@H]3CC[C@@H]4C[C@H](O)CC[C@]4(C)[C@H]3CC[C@]12C,21.8%
CC(C)(C)NCC(O)CSc1nc(-c2ccc(C(N)=O)s2)cs1 (centres unmarked),16.9%
NC(=O)c1ncn([C@@H]2O[C@H](CO)[C@@H](O)[C@H]2O)c1N,-1.82%
C[C@]12CC[C@@H]3c4ccc(OC(=O)N(CCCl)CCCl)cc4CC[C@H]3[C@@H]1CC[C@@H]2OP(=O)(O)O,3.88%
O=C(NCC1(N2CCN(c3ccccc3)CC2)CCOCC1)c1cccnc1Sc1ccccc1,13.2%
O=C(O)C(=O)Nc1cccc(-c2nnn[nH]2)c1,3.57%
Oc1c(I)cc(I)c(O)c1I,3.65%
CCn1c(=O)[nH]c2ccccc21,-0.31%
O=C(NCCCN1CCOCC1)c1cnn2c(-c3ccccc3)cc(-c3ccccc3)nc12,-0.69%
CCc1ccccc1OC[C@@H](O)CN[C@H]1CCCc2ccccc21,0.22%
COc1ccc(NC(=O)c2ccc(-c3ccc(-c4noc(C)n4)cc3C)cc2)cc1N1CCN(C)CC1,1.69%

# Set 4
# Target: RNA binding protein fox-1 homolog 2, RRM domain, GST-SBP tag (RBFOX2, Homo sapiens, UniProt O43251-10, residues 100-194)
# Method: RNA Bind-n-Seq
# Form: RNA
# Medium: in vitro
# Tested at: 365 nM
# Setting: natural RNA segment, single round, ends assumed
# Reference: no-protein control
# Reading: higher = stronger binding
# Constant ends, left off below: GGGAGUUCUACAGUCCGACGAUC … UGGAAUUCUCGGGUGCCAA
# Construct (chain): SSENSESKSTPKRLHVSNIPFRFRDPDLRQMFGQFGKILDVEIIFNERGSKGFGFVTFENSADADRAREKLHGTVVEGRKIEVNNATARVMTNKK
Strand,RBNS enrichment (R)
UAUUUUGUUGCAAGUUUGUGAGGGGAAAAUGUUUUGGUUUGUUUCUACUGACCUGAAUGUGUUGGAUCUACACGUGUUGUUUUGUUUUUGCUUUAUUGAUGCACGGAUGC,0.867
UUCAUUCCAACCCUCUUCUGCCUCUGCCGCUUGUGAGAGGACAAAUGGCCAUCCUCAGCAGGGUGGAGGGAGUGUGCGAGAAACCAGACACUUUGGUUUCUGUAAUCUUC,1.98
GACCGCAGACUGCAGCUCUGUCAUGCGAGGAAGCGCUCAAGUGUCCUGUGCGAACCCCUCGCCUCUUCCUGAGAUAGACUUGGCUCUCCCUCUUGGAUACUCUGCCCAUU,0.661
UAGCGACAACAGAUUGGAUUUUAUGUUGACAUUUGUUUGGUUAUAGUGCAAUAUAUUUUGUAUGCAAACAGUUUCAAUAAAGUUUGAUCUUCCUCUGCUAAAUUGAUGUU,0.345
AUUUAUAUAUUGUGAUGAGGAGUACUUUCUGAAGAGUACUUCGUAUUUUUUUUUAAUUGCCUUGUUUGCCUUCAACUUCCUUGAUUUUCAUAGUUUACAUGGGUGUGUGU,1.22
UAUUACUAGUGGAAUCAACUGGAAACAUAUCUCAAUCCAUGGCUAGAUAAUGUGUAUCCUAAUAAAAUUGUUCUGCUUGUAUAUGAAAUAUUAAUAUCUACCAACACAUA,0.926
CUGCAACUCCAAACCCAGACUCGCCACUUUGGGUGCACAGGUGGUUAGGUCAGCCAACUGGUUCUGCCUGUCGCCUUGCCACGGAGGAGGCUUCUAAUUAGCUGGAAAAG,0.278
UUCAGUUGUUUUUUUGUAAAAUAUAGUAGAACGGUUGUAACUGAUACUGGCCAAAAUCAAUGUUAUUCCAUAUUUUAUUUUUUCUAUUAAAUUAACCUAAGUUCCUGUUU,1.25

# Set 5
# Target: Replicase polyprotein 1ab, main protease (rep, Severe acute respiratory syndrome coronavirus 2, UniProt P0DTD1)
# Observed: enzyme activity
# Mode: inhibitor
# Tested at: 20 µM
# Setting: hit confirmation
Structure (SMILES),inhibition [%]
CC(CN1CC(=O)NC(=O)C1)N1CC(=O)NC(=O)C1 (centres unmarked),100
N=C(N)N=Nc1ccc(NNC(=N)S)cc1,93.3
C=Cc1c(C)c2cc3nc(c(CC(=O)O)c4[nH]c(cc5nc(cc1[nH]2)C(C)=C5CC)c(C)c4C(=O)O)C(CCC(=O)O)C3C (centres unmarked),40.2
COc1cc(-c2ccc(/N=N/c3ccc4c(S(=O)(=O)O)cc(S(=O)(=O)O)c(N)c4c3O)c(OC)c2)ccc1/N=N/c1ccc2c(S(=O)(=O)O)cc(S(=O)(=O)O)c(N)c2c1O,94.5

# Single results of other studies
SMILES,organism,assay,setting,scale,measurement,value
CC(C)NCC(O)COc1ccc(COCCOC(C)C)cc1.CC(C)NCC(O)COc1ccc(COCCOC(C)C)cc1.O=C(O)/C=C/C(=O)O (racemic),Vesicular stomatitis virus,"pseudovirus infection, FDA-approved drug library screen","concentration not given, SARS-CoV-2 spike pseudotype",reference: vehicle,GFP-positive cells,105%

# A few entries again (set 3):
SMILES,inhibition
Oc1c(I)cc(I)c(O)c1I,3.65%
NC(=O)c1ncn([C@@H]2O[C@H](CO)[C@@H](O)[C@H]2O)c1N,-1.82%
Cc1[nH]c2ccccc2c1CCNC(=O)c1cccs1,1.66%
O=C(NCCCN1CCOCC1)c1cnn2c(-c3ccccc3)cc(-c3ccccc3)nc12,-0.69%
COc1ccc2c(c1)c(CC(=O)OCC(C(=O)O)c1ccccc1)c(C)n2C(=O)c1ccc(Cl)cc1 (centres unmarked),-3.4%
